{"data": "Experimental data collected from several papers", "note": "Each numbered part is a random draw from the data of one study; scales do not carry over between parts.", "sequence of UniProt Q13555 (whole entry, looked up)": "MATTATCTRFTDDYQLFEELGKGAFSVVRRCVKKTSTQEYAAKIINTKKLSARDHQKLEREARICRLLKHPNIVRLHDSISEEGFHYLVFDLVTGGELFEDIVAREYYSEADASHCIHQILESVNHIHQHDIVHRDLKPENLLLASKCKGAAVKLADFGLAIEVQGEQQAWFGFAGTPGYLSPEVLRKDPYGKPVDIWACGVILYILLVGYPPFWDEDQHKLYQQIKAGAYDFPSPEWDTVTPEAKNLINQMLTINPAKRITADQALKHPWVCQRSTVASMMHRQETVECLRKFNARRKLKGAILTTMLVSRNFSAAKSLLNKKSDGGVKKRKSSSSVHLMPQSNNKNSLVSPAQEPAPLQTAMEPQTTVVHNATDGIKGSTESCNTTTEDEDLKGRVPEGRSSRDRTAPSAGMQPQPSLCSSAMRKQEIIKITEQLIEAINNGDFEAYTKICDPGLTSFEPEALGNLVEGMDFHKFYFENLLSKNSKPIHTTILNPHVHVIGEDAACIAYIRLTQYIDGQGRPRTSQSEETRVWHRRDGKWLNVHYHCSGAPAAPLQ", "sequence of UniProt P42685 (whole entry, looked up)": "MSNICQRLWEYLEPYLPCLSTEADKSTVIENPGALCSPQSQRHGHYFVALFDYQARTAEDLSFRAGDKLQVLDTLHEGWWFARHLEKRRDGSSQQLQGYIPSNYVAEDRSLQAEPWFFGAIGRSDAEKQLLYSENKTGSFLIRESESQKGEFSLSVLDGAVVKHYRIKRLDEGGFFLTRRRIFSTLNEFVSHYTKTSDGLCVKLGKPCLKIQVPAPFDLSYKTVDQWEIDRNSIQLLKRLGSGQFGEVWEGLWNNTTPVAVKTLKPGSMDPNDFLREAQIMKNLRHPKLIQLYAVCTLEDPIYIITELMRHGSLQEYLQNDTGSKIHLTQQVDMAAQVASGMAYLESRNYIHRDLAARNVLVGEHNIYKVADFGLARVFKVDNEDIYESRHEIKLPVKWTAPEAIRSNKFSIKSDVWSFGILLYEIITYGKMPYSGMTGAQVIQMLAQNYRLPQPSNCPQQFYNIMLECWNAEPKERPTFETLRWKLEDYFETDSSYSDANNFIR", "sequence of UniProt Q06187 (whole entry, looked up)": "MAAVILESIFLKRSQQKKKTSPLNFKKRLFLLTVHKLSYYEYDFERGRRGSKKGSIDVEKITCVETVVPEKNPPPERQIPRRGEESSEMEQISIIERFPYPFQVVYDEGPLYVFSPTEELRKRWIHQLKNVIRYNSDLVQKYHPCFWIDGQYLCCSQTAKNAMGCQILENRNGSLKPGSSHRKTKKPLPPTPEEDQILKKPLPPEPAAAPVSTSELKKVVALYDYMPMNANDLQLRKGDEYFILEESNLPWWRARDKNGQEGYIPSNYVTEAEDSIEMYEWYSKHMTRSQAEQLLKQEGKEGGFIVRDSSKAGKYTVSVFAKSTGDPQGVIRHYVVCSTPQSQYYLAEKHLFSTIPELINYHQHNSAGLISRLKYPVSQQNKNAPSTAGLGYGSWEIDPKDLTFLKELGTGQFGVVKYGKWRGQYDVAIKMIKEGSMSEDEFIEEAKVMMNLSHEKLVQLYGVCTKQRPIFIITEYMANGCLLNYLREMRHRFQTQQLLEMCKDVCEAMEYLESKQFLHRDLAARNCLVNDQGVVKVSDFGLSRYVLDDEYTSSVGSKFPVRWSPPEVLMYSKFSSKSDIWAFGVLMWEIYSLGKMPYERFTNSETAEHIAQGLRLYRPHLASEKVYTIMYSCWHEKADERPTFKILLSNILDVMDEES", "sequence of UniProt P07948 (whole entry, looked up)": "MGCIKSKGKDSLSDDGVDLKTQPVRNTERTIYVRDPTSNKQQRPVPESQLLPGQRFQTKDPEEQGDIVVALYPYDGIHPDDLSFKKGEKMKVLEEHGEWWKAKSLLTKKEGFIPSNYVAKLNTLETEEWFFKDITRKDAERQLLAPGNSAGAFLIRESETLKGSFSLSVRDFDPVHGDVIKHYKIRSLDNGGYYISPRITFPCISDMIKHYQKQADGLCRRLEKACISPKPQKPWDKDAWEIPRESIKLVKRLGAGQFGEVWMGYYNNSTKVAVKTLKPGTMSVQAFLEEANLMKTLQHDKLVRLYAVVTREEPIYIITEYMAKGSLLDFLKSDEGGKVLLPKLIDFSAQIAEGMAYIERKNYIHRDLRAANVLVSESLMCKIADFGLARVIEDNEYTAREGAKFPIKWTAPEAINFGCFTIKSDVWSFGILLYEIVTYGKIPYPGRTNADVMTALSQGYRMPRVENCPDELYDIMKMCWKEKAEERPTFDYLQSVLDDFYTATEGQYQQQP", "sequence of UniProt P36894 (whole entry, looked up)": "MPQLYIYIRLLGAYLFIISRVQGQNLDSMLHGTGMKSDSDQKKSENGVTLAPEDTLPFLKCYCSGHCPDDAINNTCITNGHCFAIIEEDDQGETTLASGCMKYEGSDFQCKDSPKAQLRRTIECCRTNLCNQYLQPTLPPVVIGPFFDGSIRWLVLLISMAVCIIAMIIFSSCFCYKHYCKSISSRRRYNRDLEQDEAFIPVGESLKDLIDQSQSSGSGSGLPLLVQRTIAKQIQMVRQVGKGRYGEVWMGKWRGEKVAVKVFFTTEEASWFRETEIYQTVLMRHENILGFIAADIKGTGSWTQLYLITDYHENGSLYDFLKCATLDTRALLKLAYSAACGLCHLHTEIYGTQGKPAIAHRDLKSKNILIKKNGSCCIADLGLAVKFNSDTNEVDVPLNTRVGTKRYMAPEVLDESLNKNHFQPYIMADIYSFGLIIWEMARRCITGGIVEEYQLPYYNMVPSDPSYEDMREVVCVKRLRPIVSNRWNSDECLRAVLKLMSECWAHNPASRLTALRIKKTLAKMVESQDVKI"}
{"data": "Set 1", "species": "human", "sample": "microsomes or S9", "tested at": "2 µM", "time": "0.5 h"}
{"SMILES": "COCCOc1cc(=O)n2c(c1C(=O)N1CCC(Cc3ccccc3)CC1)CCOCC2", "remaining compound [%]": 46.7}
{"SMILES": "CC(C)NC(=O)CN1C(=O)c2ccccc2N2C(=O)c3ccccc3C12 (stereo not drawn)", "remaining compound [%]": 99.2}
{"SMILES": "O=S(=O)(NCC(c1ccco1)S(=O)(=O)c1cccs1)c1ccc2c(c1)CCCC2 (stereo not drawn)", "remaining compound [%]": 1.92}
{"SMILES": "CC1CN(C(=O)c2cnc3n(c2=O)CCS3)C(C)CO1 (stereo not drawn)", "remaining compound [%]": 87.3}
{"data": "Set 2", "SMILES": "Cc1cc(C)c(-n2ccn3nc(-c4cccnc4)cc23)cc1NC(=O)c1cc(C#N)cc(S(F)(F)(F)(F)F)c1", "technique": "competition with immobilised ligand", "tested at": "0.1 µM"}
{"target": "Tyrosine-protein kinase FRK (FRK, Homo sapiens, UniProt P42685)", "test": "cell-free assay", "remaining binding [%]": 59.1}
{"target": "Bone morphogenetic protein receptor type-1A (BMPR1A, Homo sapiens, UniProt P36894)", "test": "binding", "remaining binding [%]": 97.2}
{"target": "Tyrosine-protein kinase Lyn (LYN, Homo sapiens, UniProt P07948)", "test": "cell-free assay", "remaining binding [%]": 46}
{"target": "Tyrosine-protein kinase BTK (BTK, Homo sapiens, UniProt Q06187)", "test": "cell-free assay", "remaining binding [%]": 100}
{"data": "Set 3", "target": "Ras GTPase-activating protein-binding protein 1, C-terminal RGG region (G3BP1, Homo sapiens, UniProt Q13283)", "technique": "RNA Bind-n-Seq", "molecule type": "RNA", "sample": "in vitro", "tested at": "1 µM", "setting": "whole 134-nt RNA, ends assumed", "added": "150 mM KCl", "relative to": "input library", "reading": "higher = stronger binding", "constant ends, left off below": "GGGAGUUCUACAGUCCGACGAUC … UGGAAUUCUCGGGUGUCAAGG", "sequence of UniProt Q13283 (whole entry, looked up)": "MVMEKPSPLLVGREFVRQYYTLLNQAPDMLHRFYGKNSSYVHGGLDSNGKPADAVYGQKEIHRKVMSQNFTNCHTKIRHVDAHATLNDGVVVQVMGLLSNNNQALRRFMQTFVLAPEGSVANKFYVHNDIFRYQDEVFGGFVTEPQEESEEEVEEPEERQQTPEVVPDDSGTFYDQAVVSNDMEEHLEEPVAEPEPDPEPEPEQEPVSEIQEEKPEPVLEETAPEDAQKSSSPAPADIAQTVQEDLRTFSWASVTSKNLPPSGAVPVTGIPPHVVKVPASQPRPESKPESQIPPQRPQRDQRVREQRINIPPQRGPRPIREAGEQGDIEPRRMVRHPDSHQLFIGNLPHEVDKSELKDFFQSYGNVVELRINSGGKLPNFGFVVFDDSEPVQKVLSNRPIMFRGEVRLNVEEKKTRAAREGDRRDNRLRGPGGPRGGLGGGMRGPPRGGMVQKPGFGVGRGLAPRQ"}
{"Sequence": "UCCUGUGCUACACAUCGUAUGUACCGAAUCGGGUUUGGGAAAAAAAGGGAAAAAAAGGGAAAGUAUUAUGUUACGCCGUUCGGAUCUGCA", "log2 enrichment": -0.129}
{"Sequence": "UGGGAGGUGGAUUUUGUUUAUUUUUUUAGCUCAUUUCCAGGGGUGGCAAUUUUUUUUUAAUAUGUGUCAUGAAUAAAGUUGUUUUUGAAA", "log2 enrichment": 3.67}
{"Sequence": "CAAGUCCUGUGCUACACAUCGUAUGUACCGAAUCGGGAAAGGGAAAGGGAAAGGGAAAGUAUUAUGUUACGCCGUUCGGAUCUGCACUUC", "log2 enrichment": 1.04}
{"Sequence": "CUCAAGUCCUGUGCUACACAUCGUAUGUACCGAAUCGGGAGGGGAGGGGAGGGGAAAGUAUUAUGUUACGCCGUUCGGAUCUGCACUUCC", "log2 enrichment": 2.88}
{"Sequence": "UCCUCAAGUCCUGUGCUACACAUCGUAUGUACCGAAUCGGAGGGAGGAGGGGAAAGUAUUAUGUUACGCCGUUCGGAUCUGCACUUCCAG", "log2 enrichment": -0.245}
{"Sequence": "UCAAGUCCUGUGCUACACAUCGUAUGUACCGAAUCGGGGUUUGGGUUUGGUUUGGAAAGUAUUAUGUUACGCCGUUCGGAUCUGCACUUC", "log2 enrichment": -0.821}
{"Sequence": "UGUGCUACACAUCGUAUGUACCGAAUCGGGGAAAAAGGGGUUUUUUUGGGGUUUUUUUGGGGAAAGUAUUAUGUUACGCCGUUCGGAUCU", "log2 enrichment": 0.0851}
{"Sequence": "CUGUGCUACACAUCGUAUGUACCGAAUCGGGUUUUUUUGGGGUUUUUUUGGUUUUUUUGGGAAAGUAUUAUGUUACGCCGUUCGGAUCUG", "log2 enrichment": -1.28}
{"data": "Set 4", "target": "Rho-associated protein kinase 2 (ROCK2, Homo sapiens, UniProt O75116)", "observed": "enzyme activity", "mode": "inhibitor", "tested at": "0.5 µM", "relative to": "control", "sequence of UniProt O75116 (whole entry, looked up)": "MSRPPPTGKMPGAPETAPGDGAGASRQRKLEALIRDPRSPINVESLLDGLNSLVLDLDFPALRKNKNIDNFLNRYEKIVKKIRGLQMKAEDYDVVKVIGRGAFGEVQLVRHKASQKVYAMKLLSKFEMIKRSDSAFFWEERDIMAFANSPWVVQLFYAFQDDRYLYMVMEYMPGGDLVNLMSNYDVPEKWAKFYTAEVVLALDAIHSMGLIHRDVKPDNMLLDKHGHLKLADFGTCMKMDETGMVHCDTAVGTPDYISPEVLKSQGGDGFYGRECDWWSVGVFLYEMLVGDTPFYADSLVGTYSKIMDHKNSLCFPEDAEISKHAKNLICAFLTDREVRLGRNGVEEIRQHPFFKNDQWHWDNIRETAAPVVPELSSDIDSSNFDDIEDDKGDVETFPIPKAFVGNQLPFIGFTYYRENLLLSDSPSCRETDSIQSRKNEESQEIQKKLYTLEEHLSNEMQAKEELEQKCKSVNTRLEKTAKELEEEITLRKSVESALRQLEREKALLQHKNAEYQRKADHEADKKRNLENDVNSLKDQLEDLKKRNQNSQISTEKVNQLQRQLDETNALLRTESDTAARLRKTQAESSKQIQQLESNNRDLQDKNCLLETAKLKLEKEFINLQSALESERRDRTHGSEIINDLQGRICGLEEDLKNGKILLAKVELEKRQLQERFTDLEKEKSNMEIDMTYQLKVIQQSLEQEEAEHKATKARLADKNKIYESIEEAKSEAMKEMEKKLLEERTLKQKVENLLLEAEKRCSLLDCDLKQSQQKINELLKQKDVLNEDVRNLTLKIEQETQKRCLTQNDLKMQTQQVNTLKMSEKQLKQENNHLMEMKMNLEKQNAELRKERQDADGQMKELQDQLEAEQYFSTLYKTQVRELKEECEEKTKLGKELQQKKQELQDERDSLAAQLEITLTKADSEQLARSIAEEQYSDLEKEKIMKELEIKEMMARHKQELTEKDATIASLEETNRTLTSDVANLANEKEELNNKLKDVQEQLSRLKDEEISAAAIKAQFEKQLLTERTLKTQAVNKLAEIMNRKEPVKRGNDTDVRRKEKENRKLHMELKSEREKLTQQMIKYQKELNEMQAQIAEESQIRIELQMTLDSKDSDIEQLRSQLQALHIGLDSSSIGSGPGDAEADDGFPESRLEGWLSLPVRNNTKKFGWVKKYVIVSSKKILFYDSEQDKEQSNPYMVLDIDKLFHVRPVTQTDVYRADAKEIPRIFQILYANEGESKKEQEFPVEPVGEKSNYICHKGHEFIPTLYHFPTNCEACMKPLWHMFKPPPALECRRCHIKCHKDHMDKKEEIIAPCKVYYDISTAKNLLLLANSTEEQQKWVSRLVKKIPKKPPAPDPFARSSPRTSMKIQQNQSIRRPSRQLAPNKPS"}
{"SMILES": "N#CC(C#N)=C(N)/C(C#N)=C/c1ccc(O)cc1", "remaining activity [%]": 98.3}
{"SMILES": "CCOC(=O)c1c(C)[nH]c(/C=C2\\C(=O)Nc3ccccc32)c1C", "remaining activity [%]": 94.3}
{"SMILES": "COc1cc2nccc(Oc3ccc(NC(=S)NC(=O)c4ccccc4C)cc3)c2cc1OC", "remaining activity [%]": 92.5}
{"SMILES": "NCCNc1ncc(C(N)=O)c(Nc2cccc(C(F)(F)F)c2)n1", "remaining activity [%]": 69.6}
{"SMILES": "O=C(Nc1cccc(Nc2cc(Nc3cccc(C(F)(F)F)c3)ncn2)c1)C1CC1", "remaining activity [%]": 99.2}
{"SMILES": "O=C(CCCc1ccc(-c2ccccc2F)cc1)Nc1ccc(O)cc1", "remaining activity [%]": 90.5}
{"SMILES": "Cn1c2ccccc2c2c3c(c4c5ccccc5n(CCC#N)c4c21)CNC3=O", "remaining activity [%]": 48.5}
{"SMILES": "COc1cc2ncnc(Nc3ccc(F)c(Cl)c3)c2cc1OCCCN1CCOCC1", "remaining activity [%]": 90.8}
{"SMILES": "OCC(O)CCON=C1C(c2c(O)[nH]c3ccccc23)=Nc2ccccc21 (stereo not drawn)", "remaining activity [%]": 91}
{"SMILES": "O=C1NC(=O)C(c2cn(CCCn3ccnc3)c3ccccc23)=C1Nc1ccccc1", "remaining activity [%]": 100}
{"SMILES": "Cc1cccc(-c2[nH]c(C(C)(C)C)nc2-c2ccc3c(c2)OCO3)n1", "remaining activity [%]": 104}
{"SMILES": "CO[C@H]1C[C@@H]2CC[C@@H](C)[C@@](O)(O2)C(=O)C(=O)N2CCCC[C@H]2C(=O)O[C@H]([C@H](C)C[C@@H]2CC[C@@H](O)[C@H](OC)C2)CC(=O)[C@H](C)/C=C(\\C)[C@@H](O)[C@@H](OC)C(=O)[C@H](C)C[C@H](C)/C=C/C=C/C=C/1C", "remaining activity [%]": 108}
{"SMILES": "Nc1ncnc2n[nH]c(Nc3ccc(F)cc3)c12", "remaining activity [%]": 92.1}
{"SMILES": "Cc1nc(-c2ccccc2)c(-c2ccncc2)o1", "remaining activity [%]": 97.6}
{"SMILES": "CNC(=O)c1cc(Oc2ccc(NC(=O)Nc3ccc(Cl)c(C(F)(F)F)c3)cc2)ccn1", "remaining activity [%]": 101}
{"data": "Set 5", "cell line": "HaCaT", "tested at": "100 µM", "time": "36 h"}
{"Compound": "COc1cc2ccc(=O)oc2cc1OC", "viability": "35.2%"}
{"Compound": "CC[C@@]1(O)C(=O)OCc2c1cc1n(c2=O)Cc2cc3c(CN(C)C)c(O)ccc3nc2-1", "viability": "107%"}
{"Compound": "CC[C@@H]([C@H](C)O)n1ncn(-c2ccc(N3CCN(c4ccc(OC[C@@H]5CO[C@@](Cn6cncn6)(c6ccc(F)cc6F)C5)cc4)CC3)cc2)c1=O", "viability": "37%"}
{"data": "Further values, each from its own experiment"}
{"Structure (SMILES)": "Cc1cc(-c2ccc(/N=N/c3ccc4c(S(=O)(=O)O)cc(S(=O)(=O)O)c(N)c4c3O)c(C)c2)ccc1/N=N/c1ccc2c(S(=O)(=O)O)cc(S(=O)(=O)O)c(N)c2c1O", "target or system": "Calcium/calmodulin-dependent protein kinase type II subunit gamma (CAMK2G, Homo sapiens, UniProt Q13555)", "test": "enzyme activity, inhibitor", "endpoint": "IC50", "value": "0.971 µM"}
{"Structure (SMILES)": "CC(C)n1cnc(-c2ccc(F)cc2)c1-c1ncc(C(=O)Nc2ccc(N3CCN(C)CC3)cc2)[nH]1", "test system": "human, idiopathic pulmonary fibrosis", "conditions": "30 mg twice daily, trial, without standard of care", "endpoint": "treatment-related AEs", "value": "60%"}
{"note": "For quick reference, copied from above (set 3):"}
{"Sequence": "UCCUCAAGUCCUGUGCUACACAUCGUAUGUACCGAAUCGGAGGGAGGAGGGGAAAGUAUUAUGUUACGCCGUUCGGAUCUGCACUUCCAG", "log2 enrichment": -0.245}
{"Sequence": "UCAAGUCCUGUGCUACACAUCGUAUGUACCGAAUCGGGGUUUGGGUUUGGUUUGGAAAGUAUUAUGUUACGCCGUUCGGAUCUGCACUUC", "log2 enrichment": -0.821}
{"Sequence": "UGUGCUACACAUCGUAUGUACCGAAUCGGGGAAAAAGGGGUUUUUUUGGGGUUUUUUUGGGGAAAGUAUUAUGUUACGCCGUUCGGAUCU", "log2 enrichment": 0.0851}
{"Sequence": "CUGUGCUACACAUCGUAUGUACCGAAUCGGGUUUUUUUGGGGUUUUUUUGGUUUUUUUGGGAAAGUAUUAUGUUACGCCGUUCGGAUCUG", "log2 enrichment": -1.28}
